Published values pooled from the literature.
Lines come from different studies, so protocols differ. Several values in a cell are separate wells, animals, samples, runs or records.
Target: Dual specificity protein kinase CLK2 (CLK2, Homo sapiens, UniProt P49760)
UniProt P49760, sequence (whole entry, looked up): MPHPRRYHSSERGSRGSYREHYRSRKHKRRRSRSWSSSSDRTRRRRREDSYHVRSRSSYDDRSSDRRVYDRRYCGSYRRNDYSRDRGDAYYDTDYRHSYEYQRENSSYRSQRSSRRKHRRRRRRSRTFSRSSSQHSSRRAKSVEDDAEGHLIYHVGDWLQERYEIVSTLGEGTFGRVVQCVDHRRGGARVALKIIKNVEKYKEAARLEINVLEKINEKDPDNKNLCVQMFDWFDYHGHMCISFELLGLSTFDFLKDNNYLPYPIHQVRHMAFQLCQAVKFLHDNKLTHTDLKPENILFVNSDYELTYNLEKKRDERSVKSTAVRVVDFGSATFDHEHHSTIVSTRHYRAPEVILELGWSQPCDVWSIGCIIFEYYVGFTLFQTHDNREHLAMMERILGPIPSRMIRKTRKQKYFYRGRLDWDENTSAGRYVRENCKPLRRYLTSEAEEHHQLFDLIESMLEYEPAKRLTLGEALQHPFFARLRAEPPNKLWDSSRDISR

SMILES = CCn1cc(C(=O)O)c(=O)c2c(N)c(F)c(NC3CCCCC3)cc21; test = kinase activity; conditions = 0.1 µM, with: ATP at Km; endpoint = inhibition; value = -7.8%
SMILES = COc1cc(Nc2nccc(-c3cnn4nc(OC)ccc34)n2)cc(C(F)(F)F)c1; test = binding, competition with immobilised ligand; conditions = 1 µM; endpoint = remaining binding; value = 16%
SMILES = Cc1cccc(O[C@H]2CCC[C@@H](C(C)CNCc3ccncc3)C2)c1 (relative stereo); test = enzyme activity, inhibitor; conditions = 10 µM; endpoint = inhibition; value = -5%
SMILES = C=CC(=O)N1CCc2ccc(-n3c(=O)ccc4cnc5ccc(-c6cnn(C)c6)cc5c43)cc21; test = KINOMEscan; conditions = 1 µM; scale = baseline: DMSO control; endpoint = remaining binding; value = 86%
SMILES = Cc1cnc2nc1Nc1cccc(c1)COC/C=C/COCc1cc(ccc1OCCN1CCOCC1)N2; test = binding; conditions = 0.1 µM; endpoint = remaining binding; value = 90%
SMILES = N[C@H]1CC[C@H](Nc2nccc(-c3cccnc3Oc3ccc(NC(=O)NC4CC4)c4ccccc34)n2)CC1; test = kinobead competition pulldown; test system = HEK293/HCT116 lysate mixture; conditions = 10 µM, 1 h, 4 °C; scale = lower = stronger competition; endpoint = log2 LFQ intensity; value = 24.9 and 25 and 24.8
SMILES = C=CC(=O)Nc1cccc(-c2cnc3[nH]cc(C(=O)NC(C)(C)C)c3n2)c1; test = enzyme activity, inhibitor; conditions = 0.1 µM; endpoint = inhibition; value = 74%
SMILES = CNC(=O)C1CCN(c2cc(C)c(F)cc2NC(=O)c2ccc(-c3cc(O)ccc3C)c(C)c2)CC1; test = binding, competition with immobilised ligand; conditions = 1 µM; endpoint = remaining binding; value = 97%
SMILES = Nc1ncc(-c2cc(-c3cnn(CC(F)(F)F)c3)ncc2F)nc1C(=O)NC1CNCC(F)C1 (stereo not drawn); test = enzyme activity; conditions = 1 µM; scale = baseline: DMSO control; endpoint = remaining activity; value = 50.9%
SMILES = CN1CC[C@@H](COc2cnc(C#N)cc2-c2ccn3nc(NC(=O)C4CC4)cc3c2)C1; test = enzyme activity, inhibitor; conditions = 1 µM; endpoint = inhibition; value = 16%
SMILES = CCN1CCN(Cc2ccc(C(=O)Nc3ccc(C)c(NCc4cnc5[nH]ccc5c4OC)c3)cc2C(F)(F)F)CC1; test = binding, competition with immobilised ligand; conditions = 1 µM; endpoint = remaining binding; value = 90%
SMILES = Cc1cc(NC(=O)[C@H](O)c2cc(F)cc(F)c2)ccc1-c1cnc(N)c(C(=O)NC(C)C)c1; test = binding, competition with immobilised ligand; conditions = 0.1 µM; endpoint = remaining binding; value = 61%
SMILES = CNC1C[S+]2CC[S+]3CC[S+](C1)[Ru-4]321([N]=C=S)[n]2c3ccc(OC)cc3c3c4c(c5cc(F)c[n+]1c5c32)C(=O)NC4=O (stereo not drawn); test = KinomeScan; conditions = 0.1 µM; scale = baseline: untreated; endpoint = remaining binding; value = 1.8%
SMILES = O=C(Cc1ccc(OCc2ccccc2)cc1)NC1(C(=O)O)CCN(C(=O)c2ccc(-c3cccc(Cl)c3)cc2)CC1; test = enzyme activity, inhibitor; conditions = 10 µM; endpoint = activity vs control; value = 83%
SMILES = NC(=O)C[C@H]1CCc2sc3ncnc(O[C@H]4CC[C@H](N5CCOCC5)CC4)c3c21; test = enzyme activity, inhibitor; conditions = 10 µM; endpoint = inhibition; value = 89%

Excerpt of the above:
SMILES = Cc1cc(NC(=O)[C@H](O)c2cc(F)cc(F)c2)ccc1-c1cnc(N)c(C(=O)NC(C)C)c1; test = binding, competition with immobilised ligand; conditions = 0.1 µM; endpoint = remaining binding; value = 61%
